Experimental data from different studies.
Each line is one published result; not all experiments were run side by side. Numbers after ± are the reported error.

By UniProt entry, the sequences of proteins in these tests, tags left out.
UniProt Q9NV35, whole entry: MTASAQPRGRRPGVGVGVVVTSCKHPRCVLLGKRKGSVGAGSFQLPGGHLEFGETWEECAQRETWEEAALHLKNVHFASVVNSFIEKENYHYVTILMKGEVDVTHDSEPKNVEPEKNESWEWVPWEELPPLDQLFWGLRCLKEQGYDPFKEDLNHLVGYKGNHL
UniProt P08183, whole entry: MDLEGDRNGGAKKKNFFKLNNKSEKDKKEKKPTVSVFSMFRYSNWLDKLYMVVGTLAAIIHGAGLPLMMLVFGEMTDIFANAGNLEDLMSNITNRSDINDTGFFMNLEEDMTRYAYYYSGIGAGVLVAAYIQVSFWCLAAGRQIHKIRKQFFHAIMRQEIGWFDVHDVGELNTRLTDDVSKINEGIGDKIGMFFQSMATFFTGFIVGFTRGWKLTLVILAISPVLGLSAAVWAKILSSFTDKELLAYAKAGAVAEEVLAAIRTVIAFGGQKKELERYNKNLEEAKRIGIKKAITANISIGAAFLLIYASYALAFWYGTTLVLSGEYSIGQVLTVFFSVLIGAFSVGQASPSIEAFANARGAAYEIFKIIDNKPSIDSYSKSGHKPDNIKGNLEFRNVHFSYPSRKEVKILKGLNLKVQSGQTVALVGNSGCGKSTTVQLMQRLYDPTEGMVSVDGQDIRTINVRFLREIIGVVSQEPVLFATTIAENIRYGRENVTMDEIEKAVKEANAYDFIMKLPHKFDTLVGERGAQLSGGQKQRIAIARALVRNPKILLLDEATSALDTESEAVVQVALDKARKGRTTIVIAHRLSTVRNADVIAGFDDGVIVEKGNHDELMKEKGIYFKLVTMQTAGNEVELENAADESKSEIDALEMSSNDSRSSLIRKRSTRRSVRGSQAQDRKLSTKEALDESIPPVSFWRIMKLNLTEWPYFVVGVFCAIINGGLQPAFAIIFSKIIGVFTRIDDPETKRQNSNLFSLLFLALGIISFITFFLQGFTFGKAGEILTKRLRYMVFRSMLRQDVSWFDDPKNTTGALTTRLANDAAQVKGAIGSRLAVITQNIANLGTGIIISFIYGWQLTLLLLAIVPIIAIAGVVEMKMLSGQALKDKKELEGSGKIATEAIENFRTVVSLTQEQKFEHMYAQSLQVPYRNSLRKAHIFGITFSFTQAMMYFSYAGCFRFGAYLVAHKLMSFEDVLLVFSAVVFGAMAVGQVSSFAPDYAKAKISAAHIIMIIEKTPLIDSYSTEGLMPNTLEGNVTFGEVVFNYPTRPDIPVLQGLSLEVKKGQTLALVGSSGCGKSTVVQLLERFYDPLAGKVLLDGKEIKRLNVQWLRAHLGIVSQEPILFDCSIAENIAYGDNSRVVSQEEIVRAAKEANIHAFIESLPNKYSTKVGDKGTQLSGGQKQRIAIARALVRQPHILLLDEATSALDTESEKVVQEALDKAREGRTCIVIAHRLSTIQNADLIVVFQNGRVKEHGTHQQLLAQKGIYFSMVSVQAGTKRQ

Structure (SMILES) = O=C(c1ccc(Br)cc1)N1CCN(S(=O)(=O)c2ccc3[nH]c(=O)oc3c2)CC1; target or system = NUDT15 (Homo sapiens, UniProt Q9NV35); test = enzyme activity, inhibitor, malachite green; conditions = with: dGTP; quantity = IC50; result = 0.046 µM
Structure (SMILES) = Cc1ccc(S(=O)(=O)Nc2cccc(C(=O)NC3CCN(c4ncnc5[nH]cnc45)CC3)c2)cc1Cl; target or system = SARS-CoV-2; test system = Wuhan-Hu-1; conditions = 200 µM; how to read = baseline: untreated infected cells; quantity = relative infection; result = 14%
Structure (SMILES) = O=C(c1ccc(F)cc1)N1CCN(c2ccccc2)CC1; target or system = Saccharomyces cerevisiae; test = cell growth, doubling time; test system = SEC14 -136 allele; conditions = Sec14 reduced ~7-fold; quantity = IC50; result = > 200 µM
Structure (SMILES) = Cc1cncc(-c2ccc(N[C@@H]3CCNC[C@H]3OCC3CCS(=O)(=O)CC3)c3[nH]c(=O)c(C)cc23)c1; test = chromatographic; conditions = pH 7.4; quantity = logD; result = 2.1
Structure (SMILES) = O=C(c1ccc(Cl)c([N+](=O)[O-])c1)N1CCN(Cc2ccccc2)CC1; target or system = Saccharomyces cerevisiae; test = cell growth, doubling time; test system = SEC14 -136 allele; conditions = Sec14 reduced ~7-fold; quantity = IC50; result = > 200 µM
Structure (SMILES) = CCN(CC)C(=O)c1ccc(-c2c3ccc(=[N+](C)C)cc-3[se]c3cc(N(C)C)ccc23)s1; target or system = ABCB1 (Homo sapiens, UniProt P08183); test = ATPase activity, substrate; conditions = half-maximal ATPase stimulation; quantity = Km; result = 0.68 ± 0.14 µM
Structure (SMILES) = CC1(CNC(=O)c2ccc(C#Cc3ccccc3)cc2)NC(=O)NC1=O (stereo not drawn); test system = octanol/buffer; conditions = pH 11; quantity = logD; result = 1.39
Structure (SMILES) = CN(C)S(=O)(=O)c1ccc(NCCCCN2CCC(Nc3nc4ccccc4n3Cc3ccc(F)cc3)CC2)c2nonc12; test system = hERG HEK293 membranes; conditions = 1 µM, 20 min; how to read = baseline: blank; quantity = fluorescence increase; result = ~6 fold
Structure (SMILES) = CO[C@@H]1CNC[C@H](OCC2CCC(F)(F)CC2)[C@H]1Nc1ncc(-c2cncc(C)c2)c2cc(C)c(=O)[nH]c12; test = chromatographic; conditions = pH 7.4; quantity = logD; result = 3.1
